Assay results collected from several papers.
Numbered parts are unrelated; each lists some results of a single study. “And” joins repeats or separate records; there may be more than shown.
Sequence of UniProt O94804 (whole entry, looked up): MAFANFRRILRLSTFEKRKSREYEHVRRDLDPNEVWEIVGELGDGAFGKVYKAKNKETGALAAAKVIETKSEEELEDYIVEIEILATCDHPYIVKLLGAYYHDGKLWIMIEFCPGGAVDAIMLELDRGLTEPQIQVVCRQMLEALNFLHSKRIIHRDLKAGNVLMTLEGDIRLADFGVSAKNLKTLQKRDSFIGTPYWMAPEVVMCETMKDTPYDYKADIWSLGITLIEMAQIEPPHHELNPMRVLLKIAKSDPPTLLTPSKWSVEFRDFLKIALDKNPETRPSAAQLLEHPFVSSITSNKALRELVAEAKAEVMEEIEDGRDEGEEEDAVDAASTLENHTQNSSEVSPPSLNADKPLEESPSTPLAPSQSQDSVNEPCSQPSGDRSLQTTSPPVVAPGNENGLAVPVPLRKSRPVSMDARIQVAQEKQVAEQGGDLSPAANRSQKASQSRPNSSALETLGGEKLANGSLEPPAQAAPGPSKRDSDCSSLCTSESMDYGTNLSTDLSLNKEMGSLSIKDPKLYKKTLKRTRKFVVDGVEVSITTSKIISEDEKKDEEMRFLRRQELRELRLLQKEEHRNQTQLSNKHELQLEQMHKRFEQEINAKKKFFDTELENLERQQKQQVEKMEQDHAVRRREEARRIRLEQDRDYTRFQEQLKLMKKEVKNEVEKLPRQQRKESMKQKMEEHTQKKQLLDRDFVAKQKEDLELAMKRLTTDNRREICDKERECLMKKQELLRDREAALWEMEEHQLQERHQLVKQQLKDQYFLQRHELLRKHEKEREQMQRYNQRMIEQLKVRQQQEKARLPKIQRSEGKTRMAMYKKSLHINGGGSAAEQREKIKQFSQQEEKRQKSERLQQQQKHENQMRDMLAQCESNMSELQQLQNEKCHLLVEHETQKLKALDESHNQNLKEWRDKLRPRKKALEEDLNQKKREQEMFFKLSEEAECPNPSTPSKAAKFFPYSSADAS
Sequence of UniProt P42336 (whole entry, unmodified, looked up): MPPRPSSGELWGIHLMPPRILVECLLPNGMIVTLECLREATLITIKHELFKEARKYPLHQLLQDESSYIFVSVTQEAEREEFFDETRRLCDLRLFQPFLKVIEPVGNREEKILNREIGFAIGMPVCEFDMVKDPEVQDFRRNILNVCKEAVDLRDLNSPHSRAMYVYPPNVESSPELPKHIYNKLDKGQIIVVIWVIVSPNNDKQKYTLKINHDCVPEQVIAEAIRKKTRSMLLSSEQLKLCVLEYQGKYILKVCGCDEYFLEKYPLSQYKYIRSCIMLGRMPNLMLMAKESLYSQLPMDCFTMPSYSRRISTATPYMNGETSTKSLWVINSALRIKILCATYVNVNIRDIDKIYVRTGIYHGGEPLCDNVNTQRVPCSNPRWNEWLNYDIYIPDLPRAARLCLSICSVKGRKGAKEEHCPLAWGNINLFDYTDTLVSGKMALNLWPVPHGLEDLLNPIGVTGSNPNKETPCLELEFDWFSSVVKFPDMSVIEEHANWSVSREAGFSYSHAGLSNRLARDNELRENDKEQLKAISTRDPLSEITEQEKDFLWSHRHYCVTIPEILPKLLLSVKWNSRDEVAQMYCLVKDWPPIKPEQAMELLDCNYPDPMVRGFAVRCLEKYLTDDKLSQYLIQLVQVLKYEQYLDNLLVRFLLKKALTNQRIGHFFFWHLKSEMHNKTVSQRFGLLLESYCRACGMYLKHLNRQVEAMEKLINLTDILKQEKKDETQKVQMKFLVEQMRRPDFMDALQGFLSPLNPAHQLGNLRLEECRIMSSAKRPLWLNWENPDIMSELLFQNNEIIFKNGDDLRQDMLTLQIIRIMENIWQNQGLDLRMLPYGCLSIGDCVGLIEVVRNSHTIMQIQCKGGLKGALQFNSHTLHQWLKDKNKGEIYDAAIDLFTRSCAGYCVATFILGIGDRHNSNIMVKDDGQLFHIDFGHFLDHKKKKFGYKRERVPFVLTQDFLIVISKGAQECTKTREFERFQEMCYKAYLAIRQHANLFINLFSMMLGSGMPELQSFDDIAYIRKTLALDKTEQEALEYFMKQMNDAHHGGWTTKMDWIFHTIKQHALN
Sequence of UniProt P53350 (whole entry, looked up): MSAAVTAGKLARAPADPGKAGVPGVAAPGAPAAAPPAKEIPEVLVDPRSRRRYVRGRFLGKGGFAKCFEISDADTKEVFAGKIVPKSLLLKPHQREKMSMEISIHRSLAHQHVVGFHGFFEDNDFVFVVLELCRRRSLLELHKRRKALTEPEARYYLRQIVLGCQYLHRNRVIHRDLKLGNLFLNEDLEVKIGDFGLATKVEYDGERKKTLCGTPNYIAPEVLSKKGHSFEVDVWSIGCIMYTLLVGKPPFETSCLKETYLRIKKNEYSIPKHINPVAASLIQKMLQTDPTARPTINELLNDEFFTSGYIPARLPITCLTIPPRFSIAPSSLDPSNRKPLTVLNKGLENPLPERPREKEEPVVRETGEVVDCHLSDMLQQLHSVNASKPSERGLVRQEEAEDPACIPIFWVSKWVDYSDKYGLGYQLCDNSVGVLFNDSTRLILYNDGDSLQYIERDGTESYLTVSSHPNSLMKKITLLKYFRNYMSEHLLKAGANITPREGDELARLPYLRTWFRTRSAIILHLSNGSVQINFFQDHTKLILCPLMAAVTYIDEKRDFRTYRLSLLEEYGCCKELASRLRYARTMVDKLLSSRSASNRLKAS
Sequence of UniProt P49841 (whole entry, looked up): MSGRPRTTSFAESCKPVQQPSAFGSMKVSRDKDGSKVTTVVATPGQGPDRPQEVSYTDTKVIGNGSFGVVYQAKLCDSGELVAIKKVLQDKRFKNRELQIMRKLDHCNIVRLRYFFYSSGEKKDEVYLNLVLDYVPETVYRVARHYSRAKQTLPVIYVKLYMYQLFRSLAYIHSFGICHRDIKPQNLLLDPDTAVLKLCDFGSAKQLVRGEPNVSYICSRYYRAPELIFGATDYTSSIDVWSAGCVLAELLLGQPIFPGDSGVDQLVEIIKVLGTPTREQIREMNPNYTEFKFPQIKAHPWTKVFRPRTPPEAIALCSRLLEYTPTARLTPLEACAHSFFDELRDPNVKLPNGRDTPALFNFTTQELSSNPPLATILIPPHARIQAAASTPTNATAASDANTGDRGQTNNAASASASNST
Sequence of UniProt Q52WX2 (whole entry, looked up): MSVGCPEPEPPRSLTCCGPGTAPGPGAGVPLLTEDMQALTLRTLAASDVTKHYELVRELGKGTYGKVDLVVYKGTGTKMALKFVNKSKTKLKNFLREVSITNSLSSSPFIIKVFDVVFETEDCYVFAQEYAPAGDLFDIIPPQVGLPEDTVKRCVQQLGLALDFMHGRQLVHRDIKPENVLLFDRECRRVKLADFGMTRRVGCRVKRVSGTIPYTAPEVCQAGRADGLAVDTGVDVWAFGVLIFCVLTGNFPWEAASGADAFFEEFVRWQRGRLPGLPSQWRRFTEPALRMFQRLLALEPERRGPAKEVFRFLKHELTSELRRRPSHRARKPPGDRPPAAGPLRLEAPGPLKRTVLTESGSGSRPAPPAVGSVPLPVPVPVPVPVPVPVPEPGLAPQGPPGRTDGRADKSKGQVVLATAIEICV
Sequence of UniProt P36896 (whole entry, looked up): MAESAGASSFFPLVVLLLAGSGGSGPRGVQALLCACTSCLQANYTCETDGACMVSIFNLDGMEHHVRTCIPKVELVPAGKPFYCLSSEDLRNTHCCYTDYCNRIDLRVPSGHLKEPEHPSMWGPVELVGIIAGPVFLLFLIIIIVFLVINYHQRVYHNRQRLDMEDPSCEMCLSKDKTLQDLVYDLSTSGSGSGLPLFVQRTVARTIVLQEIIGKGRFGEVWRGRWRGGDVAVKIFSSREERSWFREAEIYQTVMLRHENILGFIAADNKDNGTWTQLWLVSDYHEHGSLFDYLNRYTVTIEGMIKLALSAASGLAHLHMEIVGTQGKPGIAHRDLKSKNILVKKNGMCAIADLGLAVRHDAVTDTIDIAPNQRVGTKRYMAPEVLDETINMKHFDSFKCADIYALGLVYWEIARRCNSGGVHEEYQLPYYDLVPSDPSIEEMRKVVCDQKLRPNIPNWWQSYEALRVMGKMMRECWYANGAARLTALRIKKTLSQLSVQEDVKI

Block 1 — effect on: cell-free assay; method: competition with immobilised ligand; tested at: 1 µM
SMILES: Cc1nccc(COC(=O)N2C[C@@H]3[C@@H](CNC(=O)c4ccc5[nH]nnc5c4)[C@@H]3C2)n1
For Tyrosine-protein kinase ABL1, non-phosphorylated (ABL1, Homo sapiens, UniProt P00519, F317L): remaining binding read 70%.
It gave 100% for remaining binding (BMP-2-inducible protein kinase (BMP2K, Homo sapiens, UniProt Q9NSY1)).
It gave 86% for remaining binding (Phosphatidylinositol 4,5-bisphosphate 3-kinase catalytic subunit alpha isoform (PIK3CA, Homo sapiens, UniProt P42336, E542K)).
For Epidermal growth factor receptor (EGFR, Homo sapiens, UniProt P00533, T790M): remaining binding read 91%.
It gave 92% for remaining binding (Activin receptor type-1B (ACVR1B, Homo sapiens, UniProt P36896)).
It gave 100% for remaining binding (Proto-oncogene tyrosine-protein kinase Src (SRC, Homo sapiens, UniProt P12931)).
Mitogen-activated protein kinase kinase kinase 6 (MAP3K6, Homo sapiens, UniProt O95382) — remaining binding: 78%.
Myosin light chain kinase 2, skeletal/cardiac muscle (MYLK2, Homo sapiens, UniProt Q9H1R3) — remaining binding: 90%.
It gave 100% for remaining binding (Serine/threonine-protein kinase 10 (STK10, Homo sapiens, UniProt O94804)).
For Glycogen synthase kinase-3 beta (GSK3B, Homo sapiens, UniProt P49841): remaining binding read 100%.
Serine/threonine-protein kinase PLK1 (PLK1, Homo sapiens, UniProt P53350) — remaining binding: 92%.
It gave 85% for remaining binding (Mitogen-activated protein kinase kinase kinase 1 (MAP3K1, Homo sapiens, UniProt Q13233)).
For Serine/threonine-protein kinase SBK1 (SBK1, Homo sapiens, UniProt Q52WX2): remaining binding read 93%.

Block 2 — cell line: A-375; tested at: 100 µM; time: 60 h
For `CO/N=C(\C(=O)N[C@@H]1C(=O)N2C(C(=O)O)=C(CSc3nnnn3C)CS[C@H]12)c1csc(N)n1`, the viability was 102%.
`O=C1CC[C@@H](C(=O)N2CSC[C@H]2C(=O)O)N1` gave a viability of 107%.
With `OC[C@H]1O[C@@H](Oc2ccc(O)cc2)[C@H](O)[C@@H](O)[C@@H]1O` the viability was 103%.
The viability of `C[C@H](CCC(=O)O)[C@H]1CC[C@H]2[C@@H]3[C@H](O)C[C@@H]4C[C@H](O)CC[C@]4(C)[C@H]3C[C@H](O)[C@]12C` is reported as 103%.

Block 3 — host: human; medium: microsomes or S9; tested at: 2 µM; time: 0.5 h
The remaining compound of `COc1ccc(C(Nc2nc(C)cc(C)n2)c2c(NC(=O)c3ccco3)sc(C)c2C)c(OC)c1` (centres unmarked) is reported as 0.261%.
`COc1cc(=O)[nH]cc1C(=O)NCC(C)N1CCCCC1=O` (centres unmarked) has a remaining compound of 90.3%.
With `CC1(C)CC(NC(=O)CCc2nc3ncc(Br)cc3[nH]2)CC(C)(C)N1` the remaining compound was 62.9%.
With `CCC(=O)c1ccc(OCCCn2cnc3ccccc32)cc1` the remaining compound was 39.3%.
For `COc1ccccc1-n1nc2c(C)nnc(C)c2c1C`, the remaining compound was 99.8%.

Block 4 — action: agonist
Target: Beta-1 adrenergic receptor (ADRB1, Homo sapiens, UniProt P08588)
Sequence of UniProt P08588 (whole entry, looked up): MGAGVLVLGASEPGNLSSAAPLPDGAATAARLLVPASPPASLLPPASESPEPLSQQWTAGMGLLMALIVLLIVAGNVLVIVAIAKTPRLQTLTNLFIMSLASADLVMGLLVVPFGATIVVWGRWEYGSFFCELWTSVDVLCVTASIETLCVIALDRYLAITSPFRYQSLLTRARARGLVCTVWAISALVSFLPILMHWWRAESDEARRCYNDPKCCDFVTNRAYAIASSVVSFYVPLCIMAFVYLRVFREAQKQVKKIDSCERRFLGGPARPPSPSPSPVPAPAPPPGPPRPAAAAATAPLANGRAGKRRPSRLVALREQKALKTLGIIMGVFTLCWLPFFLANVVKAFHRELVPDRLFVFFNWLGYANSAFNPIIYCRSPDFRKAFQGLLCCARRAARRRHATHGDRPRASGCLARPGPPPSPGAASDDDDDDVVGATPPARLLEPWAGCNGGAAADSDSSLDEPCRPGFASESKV
The EC50 of `CC(C)(C)NC[C@@H](O)c1ccc(O)c(CO)n1` is reported as 0.0372 µM.
`O=c1oc2ccccc2cc1-c1nc2c(s1)CCc1ccccc1-2` has an EC50 of at least 100 µM.
`CC#CCn1cc2c3c(cccc31)[C@H](CC(C)C)N[C@H](C(=O)NCCOC)C2` has an EC50 of at least 100 µM.
With `Cc1noc2c(-c3cccc(O)c3)cc(-c3ccccc3)nc12` the EC50 was at least 100 µM.
`CC#CCn1cc2c3c(cccc31)[C@H](CC(C)C)N[C@H](C(=O)NCc1ccccc1)C2` gave an EC50 of at least 100 µM.
The EC50 of `CC(C)N1CCN(c2cc(-c3ccccc3)c3ccccc3n2)CC1` is reported as at least 100 µM.

Single results of other studies
With `CC(=O)N[C@@H](Cc1c[nH]c2ccccc12)C(=O)N[C@@H](CCC(=O)C=[N+]=[N-])C(=O)OC(C)C` the normalized intensity was -0.103 and 0.101 and 0.00026 and -0.0067 and -0.125 and -0.176 (refers to: malate; mouse, EL4 tumour; dose not given).

For quick reference, copied from above (block 1):
For Epidermal growth factor receptor (EGFR, Homo sapiens, UniProt P00533, T790M): remaining binding read 91%.
It gave 92% for remaining binding (Activin receptor type-1B (ACVR1B, Homo sapiens, UniProt P36896)).
It gave 100% for remaining binding (Proto-oncogene tyrosine-protein kinase Src (SRC, Homo sapiens, UniProt P12931)).
Mitogen-activated protein kinase kinase kinase 6 (MAP3K6, Homo sapiens, UniProt O95382) — remaining binding: 78%.
